Results collected from several papers.
Each numbered part is a random draw from the data of one study; scales do not carry over between parts. Values joined by “and” are separate records of one study, mostly repeats; a detail may differ.
Chain of UniProt Q13131 (whole entry, looked up): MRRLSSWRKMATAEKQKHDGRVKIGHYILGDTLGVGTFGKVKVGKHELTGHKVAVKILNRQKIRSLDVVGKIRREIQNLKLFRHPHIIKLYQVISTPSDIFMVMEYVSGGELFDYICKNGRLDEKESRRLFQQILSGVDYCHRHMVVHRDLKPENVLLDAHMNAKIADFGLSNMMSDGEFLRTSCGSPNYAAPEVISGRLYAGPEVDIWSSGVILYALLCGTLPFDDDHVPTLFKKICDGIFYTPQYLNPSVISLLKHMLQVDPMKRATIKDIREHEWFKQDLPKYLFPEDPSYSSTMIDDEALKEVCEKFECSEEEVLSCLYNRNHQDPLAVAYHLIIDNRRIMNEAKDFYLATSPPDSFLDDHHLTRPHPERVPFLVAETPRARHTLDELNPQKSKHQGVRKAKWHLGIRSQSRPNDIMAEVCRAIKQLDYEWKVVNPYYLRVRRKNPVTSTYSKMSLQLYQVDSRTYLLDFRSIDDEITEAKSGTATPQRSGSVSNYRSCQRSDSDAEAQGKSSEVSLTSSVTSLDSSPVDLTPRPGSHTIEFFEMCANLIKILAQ
Chain of UniProt P42336 (whole entry, unmodified, looked up): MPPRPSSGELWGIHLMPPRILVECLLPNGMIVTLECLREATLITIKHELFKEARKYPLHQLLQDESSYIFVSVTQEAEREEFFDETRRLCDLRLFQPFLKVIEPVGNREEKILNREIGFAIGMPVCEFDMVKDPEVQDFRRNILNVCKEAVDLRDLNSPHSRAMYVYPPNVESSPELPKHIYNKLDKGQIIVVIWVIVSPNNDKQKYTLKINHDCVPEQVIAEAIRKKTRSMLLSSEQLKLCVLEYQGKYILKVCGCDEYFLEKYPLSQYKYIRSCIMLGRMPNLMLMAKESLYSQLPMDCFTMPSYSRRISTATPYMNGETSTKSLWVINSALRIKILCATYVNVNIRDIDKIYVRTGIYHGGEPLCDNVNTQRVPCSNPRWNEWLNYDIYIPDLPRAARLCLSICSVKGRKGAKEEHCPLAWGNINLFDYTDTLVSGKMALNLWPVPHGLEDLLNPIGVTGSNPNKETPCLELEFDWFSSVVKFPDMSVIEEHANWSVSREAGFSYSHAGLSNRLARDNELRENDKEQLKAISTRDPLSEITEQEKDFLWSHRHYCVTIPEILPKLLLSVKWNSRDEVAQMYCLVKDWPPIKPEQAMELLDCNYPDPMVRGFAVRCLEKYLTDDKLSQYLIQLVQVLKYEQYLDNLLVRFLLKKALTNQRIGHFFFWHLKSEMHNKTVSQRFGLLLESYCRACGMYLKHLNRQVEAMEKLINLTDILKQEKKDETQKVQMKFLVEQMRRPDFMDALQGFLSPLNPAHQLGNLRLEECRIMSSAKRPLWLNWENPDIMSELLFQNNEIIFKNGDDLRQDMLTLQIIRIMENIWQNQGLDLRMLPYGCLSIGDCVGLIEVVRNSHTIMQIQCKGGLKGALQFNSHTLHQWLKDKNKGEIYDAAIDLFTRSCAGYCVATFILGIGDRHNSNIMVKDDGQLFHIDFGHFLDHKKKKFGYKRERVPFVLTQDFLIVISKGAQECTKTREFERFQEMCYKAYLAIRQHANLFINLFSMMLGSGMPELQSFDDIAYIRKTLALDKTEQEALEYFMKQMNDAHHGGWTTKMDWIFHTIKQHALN
Chain of UniProt Q9UBF8 (whole entry, looked up): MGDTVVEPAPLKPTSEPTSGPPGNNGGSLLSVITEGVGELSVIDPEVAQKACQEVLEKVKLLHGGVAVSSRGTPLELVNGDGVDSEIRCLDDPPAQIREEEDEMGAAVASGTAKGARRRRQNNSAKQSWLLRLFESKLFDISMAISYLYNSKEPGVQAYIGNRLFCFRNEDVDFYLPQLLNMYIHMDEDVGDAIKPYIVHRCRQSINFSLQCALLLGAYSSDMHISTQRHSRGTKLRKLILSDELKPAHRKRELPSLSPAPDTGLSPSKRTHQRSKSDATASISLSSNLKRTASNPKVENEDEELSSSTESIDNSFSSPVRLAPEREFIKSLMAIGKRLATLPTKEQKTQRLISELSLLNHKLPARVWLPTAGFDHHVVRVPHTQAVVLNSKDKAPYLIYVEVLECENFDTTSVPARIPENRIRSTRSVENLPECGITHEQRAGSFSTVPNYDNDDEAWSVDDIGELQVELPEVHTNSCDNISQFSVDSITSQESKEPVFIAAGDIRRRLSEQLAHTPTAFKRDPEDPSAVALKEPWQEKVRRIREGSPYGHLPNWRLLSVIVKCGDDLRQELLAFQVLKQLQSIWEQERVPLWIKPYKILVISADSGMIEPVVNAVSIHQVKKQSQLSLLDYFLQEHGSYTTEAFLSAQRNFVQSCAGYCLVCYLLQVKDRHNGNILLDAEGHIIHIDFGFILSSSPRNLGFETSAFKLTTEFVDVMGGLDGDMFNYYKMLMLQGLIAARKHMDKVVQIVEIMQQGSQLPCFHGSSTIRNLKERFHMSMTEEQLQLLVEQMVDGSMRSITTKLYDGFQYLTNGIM
Chain of UniProt P54764 (whole entry, looked up): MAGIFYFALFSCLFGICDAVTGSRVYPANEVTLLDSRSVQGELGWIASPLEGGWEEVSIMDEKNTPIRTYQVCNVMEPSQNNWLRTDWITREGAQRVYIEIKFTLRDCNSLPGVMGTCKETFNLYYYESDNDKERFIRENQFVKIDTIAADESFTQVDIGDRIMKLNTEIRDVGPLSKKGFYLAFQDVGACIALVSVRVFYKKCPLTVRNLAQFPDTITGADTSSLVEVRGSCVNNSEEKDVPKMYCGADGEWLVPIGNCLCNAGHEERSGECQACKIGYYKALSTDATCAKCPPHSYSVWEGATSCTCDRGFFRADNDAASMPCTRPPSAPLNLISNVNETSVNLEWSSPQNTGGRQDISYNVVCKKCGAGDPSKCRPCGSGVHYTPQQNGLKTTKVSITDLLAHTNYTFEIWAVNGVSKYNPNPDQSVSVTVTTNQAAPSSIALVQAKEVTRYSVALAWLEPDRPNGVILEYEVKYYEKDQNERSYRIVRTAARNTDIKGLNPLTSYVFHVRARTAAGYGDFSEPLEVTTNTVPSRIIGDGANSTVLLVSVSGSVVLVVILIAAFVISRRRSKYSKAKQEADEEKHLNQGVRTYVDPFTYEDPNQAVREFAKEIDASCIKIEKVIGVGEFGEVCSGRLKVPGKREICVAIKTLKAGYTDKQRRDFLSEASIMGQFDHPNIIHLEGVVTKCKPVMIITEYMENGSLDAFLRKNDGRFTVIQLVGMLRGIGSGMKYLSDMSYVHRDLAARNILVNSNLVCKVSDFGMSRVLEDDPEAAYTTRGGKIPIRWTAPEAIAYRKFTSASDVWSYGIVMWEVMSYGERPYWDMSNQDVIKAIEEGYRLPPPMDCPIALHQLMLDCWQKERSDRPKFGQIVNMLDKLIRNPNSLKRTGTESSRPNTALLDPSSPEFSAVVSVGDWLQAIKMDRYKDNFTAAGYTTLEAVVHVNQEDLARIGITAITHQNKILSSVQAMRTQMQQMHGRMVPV
Chain of UniProt P50613 (whole entry, looked up): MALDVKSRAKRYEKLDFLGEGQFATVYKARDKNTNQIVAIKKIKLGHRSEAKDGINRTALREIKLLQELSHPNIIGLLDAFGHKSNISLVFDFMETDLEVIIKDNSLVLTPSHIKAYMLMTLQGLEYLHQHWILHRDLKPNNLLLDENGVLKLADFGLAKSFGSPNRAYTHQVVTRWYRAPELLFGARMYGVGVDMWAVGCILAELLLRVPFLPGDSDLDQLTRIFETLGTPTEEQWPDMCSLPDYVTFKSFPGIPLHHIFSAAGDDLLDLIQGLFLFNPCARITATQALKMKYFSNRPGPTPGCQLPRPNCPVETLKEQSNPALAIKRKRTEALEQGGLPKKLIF
Chain of UniProt P37023 (whole entry, looked up): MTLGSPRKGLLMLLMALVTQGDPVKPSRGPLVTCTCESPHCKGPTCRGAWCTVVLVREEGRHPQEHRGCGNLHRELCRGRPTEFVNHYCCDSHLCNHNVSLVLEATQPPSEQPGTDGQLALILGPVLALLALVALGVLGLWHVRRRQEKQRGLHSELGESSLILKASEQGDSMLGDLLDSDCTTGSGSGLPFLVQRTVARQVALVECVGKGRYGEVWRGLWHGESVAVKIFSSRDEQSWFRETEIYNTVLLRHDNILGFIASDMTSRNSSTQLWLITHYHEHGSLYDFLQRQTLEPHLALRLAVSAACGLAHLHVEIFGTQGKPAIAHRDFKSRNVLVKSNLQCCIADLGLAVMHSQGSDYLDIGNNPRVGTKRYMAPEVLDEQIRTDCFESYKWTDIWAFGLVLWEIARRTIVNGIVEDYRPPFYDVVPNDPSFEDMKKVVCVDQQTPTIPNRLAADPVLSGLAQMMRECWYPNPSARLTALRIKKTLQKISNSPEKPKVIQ

Study 1
Target: Hepatocyte nuclear factor 3-beta, forkhead domain (FOXA2, Homo sapiens, UniProt Q9Y261, residues 142-269)
Technique: protein-binding microarray
Form: hairpin DNA
Matrix: in vitro
Tested at: not given
Notes: whole hairpin DNA, median over replicate spots
Reference: not given
Reading: higher = stronger binding
Quantity: median fluorescence
Construct (chain): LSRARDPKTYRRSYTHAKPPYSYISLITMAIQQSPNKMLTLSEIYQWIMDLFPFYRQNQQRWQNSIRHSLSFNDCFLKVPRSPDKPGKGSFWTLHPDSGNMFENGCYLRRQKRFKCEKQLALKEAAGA
GAGGCCATGTAAACCGCGCCTCCTGGCGCGGTTTACATGGCCTCACACTC (5mC at 15): 3320 a.u.
GAGGCCATATAAACAACGCCTCCTGGCGTTGTTTATATGGCCTCACACTC: 3030 a.u.
GAGGCCATGCAAACGACGCCTCCTGGCGTCGTTTGCATGGCCTCACACTC (5mC at 30): 3600 a.u.
GAGGCCAAGTAACCAACGCCTCCTGGCGTTGGTTACTTGGCCTCACACTC: 3330 a.u.
GAGGCCATGCAAACCACGCCTCCTGGCGTGGTTTGCATGGCCTCACACTC: 3410 a.u.
GAGGCCATGTAAACACGGCCTCCTGGCCGTGTTTACATGGCCTCACACTC (5mC at 16): 3560 a.u.
GAGGCCCGGCAAACAACGCCTCCTGGCGTTGTTTGCCGGGCCTCACACTC (5mC at 7): 3740 a.u.
GAGGCCATGCAAAGAACGCCTCCTGGCGTTCTTTGCATGGCCTCACACTC: 3240 a.u.

Study 2
Species: mouse
Matrix: microsomes or S9
Tested at: 2 µM
Time: 0.5 h
Quantity: remaining compound
O=C(Nc1ccccc1)C1CCCN1C1=NS(=O)(=O)c2ccccc21 (stereo not drawn): 132%
Brc1ccc(-c2c[nH]c(CNc3nncn3-c3ccccc3)n2)cc1: 8.99%
O=S(=O)(NCCNCC1(O)CNCCOC1)c1ccc(Cl)cc1 (stereo not drawn): 77.6%
O=C(NCc1cc2n(n1)CCNC2)c1cccc(OCc2cccc(F)c2)c1: 12.8%

Study 3
Organism: Sarcocystis neurona
Observed: parasite activity
Tested at: 10 µM
Time: 96 h
Quantity: activity class
CNCCCN1c2ccccc2CCc2ccccc21: inactive
CNC(=C[N+](=O)[O-])NCCSCc1ccc(CN(C)C)o1: inactive
O=S(=O)(O)CCS: inactive
NS(=O)(=O)Cc1noc2ccccc12: inactive
C[C@@H]1O[C@@H](OC[C@H]2O[C@@H](Oc3c(-c4ccc(O)c(O)c4)oc4cc(O)cc(O)c4c3=O)[C@H](O)[C@@H](O)[C@@H]2O)[C@H](O)[C@H](O)[C@H]1O: inactive

Study 4
Structure (SMILES): O=C(N[C@H]1CCCCC/C=C\C2C[C@@]2(C(=O)O)NC(=O)[C@@H]2C[C@@H](Oc3ccncc3)CN2C1=O)OC1CCCC1 (stereo partly drawn)
Tested at: 1 µM
Quantity: remaining binding
LRRK2 (Homo sapiens, UniProt Q5S007); binding, competition with immobilised ligand: 100%
NTRK3 (Homo sapiens, UniProt Q16288); cell-free assay, competition with immobilised ligand: 100%
PI4KB (Homo sapiens, UniProt Q9UBF8); binding, competition with immobilised ligand: 81%
CDK7 (Homo sapiens, UniProt P50613); binding, competition with immobilised ligand: 71%
EPHA4 (Homo sapiens, UniProt P54764); cell-free assay, competition with immobilised ligand: 93%
WEE1 (Homo sapiens, UniProt P30291); binding, competition with immobilised ligand: 100%
ACVRL1 (Homo sapiens, UniProt P37023); binding, competition with immobilised ligand: 84%
PRKAA1 (Homo sapiens, UniProt Q13131); cell-free assay, competition with immobilised ligand: 100%
COQ8B (Homo sapiens, UniProt Q96D53); binding, competition with immobilised ligand: 100%
FGFR3 (Homo sapiens, UniProt P22607); cell-free assay, competition with immobilised ligand: 88%
DYRK2 (Homo sapiens, UniProt Q92630); binding, competition with immobilised ligand: 66%
PIK3CA (Homo sapiens, UniProt P42336, E545K); binding, competition with immobilised ligand: 95%
CDC42BPG (Homo sapiens, UniProt Q6DT37); competition binding: 90%

Single results of other studies
ADRB1: Beta-1 adrenergic receptor (ADRB1, Homo sapiens, UniProt P08588)
Chain of UniProt P08588 (whole entry, looked up): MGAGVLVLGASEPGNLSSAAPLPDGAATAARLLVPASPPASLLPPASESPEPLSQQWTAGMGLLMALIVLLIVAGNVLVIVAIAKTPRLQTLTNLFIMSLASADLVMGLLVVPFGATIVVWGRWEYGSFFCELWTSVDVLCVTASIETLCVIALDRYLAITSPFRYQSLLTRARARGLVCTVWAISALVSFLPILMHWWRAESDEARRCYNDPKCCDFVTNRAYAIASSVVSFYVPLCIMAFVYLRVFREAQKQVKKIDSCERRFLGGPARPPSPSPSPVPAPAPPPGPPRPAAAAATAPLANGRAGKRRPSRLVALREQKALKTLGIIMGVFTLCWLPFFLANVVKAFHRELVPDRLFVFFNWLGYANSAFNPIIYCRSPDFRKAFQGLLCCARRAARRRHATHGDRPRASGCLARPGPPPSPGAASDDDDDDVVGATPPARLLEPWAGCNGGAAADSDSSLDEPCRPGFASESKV
c1nc2nc(Nc3ccc(N4CCOCC4)cc3)nc(NC3CCCCC3)c2[nH]1
EC50 (ADRB1; cells): ≥ 100 µM

COc1ccc(-c2c(Nc3ccccn3)[nH]c3c(C4=CCCCC4)c(-c4ccccc4)nn3c2=O)cc1
AUC(0-24) (LC-MS/MS; human, plasma; oral, 50 mg once daily): 33000 ng·h/mL and 34900 ng·h/mL

Cc1c(-c2c(-c3ccc(F)o3)sc3ncnc(O[C@@H](Cc4ccccc4OCc4ccnn4CC(F)(F)F)C(=O)O)c23)ccc(OCCN2CCN(C)CC2)c1Cl
EC50 (ADRB1; cells): ≥ 100 µM

Some of these lines once more (single results of other studies):
c1nc2nc(Nc3ccc(N4CCOCC4)cc3)nc(NC3CCCCC3)c2[nH]1
EC50 (ADRB1; cells): ≥ 100 µM

COc1ccc(-c2c(Nc3ccccn3)[nH]c3c(C4=CCCCC4)c(-c4ccccc4)nn3c2=O)cc1
AUC(0-24) (LC-MS/MS; human, plasma; oral, 50 mg once daily): 33000 ng·h/mL and 34900 ng·h/mL

Cc1c(-c2c(-c3ccc(F)o3)sc3ncnc(O[C@@H](Cc4ccccc4OCc4ccnn4CC(F)(F)F)C(=O)O)c23)ccc(OCCN2CCN(C)CC2)c1Cl
EC50 (ADRB1; cells): ≥ 100 µM
